Experimental data gathered from unrelated publications.
Every numbered part comes from another study and shows a few of its results, in no order.

Set 1 — technique: protein-binding microarray; molecule type: double-stranded DNA, one strand shown; medium: in vitro; tested at: 250 nM; notes: 60-bp whole probe; added: salmon DNA 0.4 mg/ml; baseline: random background probes; reading: higher = stronger binding; measurement: log fluorescence; shared flanks, not repeated: GCCTAGCAC … GTCTTGATTCGCTTGACGCTGCTG
Target: Interferon regulatory factor 5, full length, phosphomimetic (IRF5, Homo sapiens, UniProt Q13568-2, residues 1-514, K96S/S451D/S453D/S456D/S462D)
TCAAGTTTACCCATCTCCAGGTGCTAG: -0.0156 z-score
GACGAACTGAGTAACGAGACGTGCTAG: -0.167 z-score
CTTCCCCTCTCATTCCAATTGTGCTAG: 0.299 z-score
TCATAAATCTTTGTTGGAACTGTGCTA: 0.467 z-score
GACGGACTGGGGACTGGGAACGTGCTA: -0.335 z-score

Set 2 — technique: competition protein-binding microarray; molecule type: double-stranded DNA, one strand shown; medium: in vitro; tested at: 2 µM; added: Pho4 competitor, 0.05 µM; reading: higher = stronger binding; measurement: fluorescence intensity
Target: Centromere-binding protein 1, full length, His-tagged (CBF1, Saccharomyces cerevisiae, UniProt P17106, residues 1-351)
Chain of UniProt P17106 (whole entry, looked up): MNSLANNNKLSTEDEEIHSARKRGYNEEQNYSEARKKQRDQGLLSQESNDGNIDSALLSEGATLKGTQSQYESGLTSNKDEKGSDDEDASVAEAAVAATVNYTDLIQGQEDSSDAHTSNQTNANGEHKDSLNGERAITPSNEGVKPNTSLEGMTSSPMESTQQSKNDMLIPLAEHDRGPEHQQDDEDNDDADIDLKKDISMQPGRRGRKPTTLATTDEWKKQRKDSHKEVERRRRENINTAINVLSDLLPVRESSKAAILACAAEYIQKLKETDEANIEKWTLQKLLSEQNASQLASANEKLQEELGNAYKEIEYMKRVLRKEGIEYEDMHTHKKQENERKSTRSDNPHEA
Notes: whole 60-bp probe, lowest competitor level
CTTTCCCGATCTTGATCAGTGGGTGTAGCACATTTGGTCTTGATTCGCTTGACGCTGCTG: 63.7 a.u.
AAAGCGGTAATTTGTCACGCAACTTCACATATCTATGTCTTGATTCGCTTGACGCTGCTG: 128 a.u.
AAAGCGGTAATTTGACTTGTGGGTGCAGATATCTATGTCTTGATTCGCTTGACGCTGCTG: 89.8 a.u.

Set 3 — technique: protein binding microarray; molecule type: double-stranded DNA, one strand shown; medium: in vitro; tested at: not given; baseline: not given; reading: higher = stronger binding; measurement: E-score
Target: Histone acetyltransferase KAT6A, winged helix 2, GST fusion (KAT6A, Homo sapiens, UniProt Q92794, residues 85-181)
Notes: 8-mer, flanks averaged, mean of 2 arrays, mostly near background
Residues (chain): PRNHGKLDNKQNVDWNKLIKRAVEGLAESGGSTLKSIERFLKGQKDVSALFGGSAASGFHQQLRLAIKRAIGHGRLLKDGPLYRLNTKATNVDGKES
CAGCCAGC: -0.0947
AGCGGGGG: 0.0828
AGCGTATC: -0.0467
GGGTTTAC: -0.0871

Mixed results
PhoQ, residues 284 288 289 292 302 303 ASTSDA
fold induction (PhoP, residues 12 14 15 18 19 DLLYY (Escherichia coli, UniProt P23836); Sort-seq, item: YFP reporter; E. coli; PhoQ-PhoP variant library, added: 10 µM Mg2+; baseline: high Mg2+ state, higher = stronger signaling): 4.39

For quick reference, copied from above (set 1):
CTTCCCCTCTCATTCCAATTGTGCTAG: 0.299 z-score
TCATAAATCTTTGTTGGAACTGTGCTA: 0.467 z-score
